# Published values gathered from unrelated publications.
# Each line is one published result; not all experiments were run side by side.
Compound,cell line,test,conditions,how to read,endpoint,value
C[C@]12CC[C@H]3[C@@H]([C@H](/C=C/C=C/C=C/[C@@H]4CC5=CC(=O)CC[C@]5(C)[C@H]5CC[C@]6(C)[C@H](O)CC[C@H]6[C@H]45)CC4=CC(=O)CC[C@@]43C)[C@@H]1CC[C@H]2O (relative stereo),LNCaP,,added: testosterone or dihydrotestosterone,,complete growth inhibition,0.25 to 0.5 µM
Cc1c(Cc2ccc(F)cc2)c(=O)n2c([nH]c3ccccc32)c1C#N,Vero,cell growth or viability,,,IC50,16 µg/mL
CO/C1=C\C(C)=C\[C@@H](C)[C@@H](O)[C@@H](C)C/C(C)=C/C=C/[C@H](OC)[C@@H]([C@@H](C)[C@@H](O)[C@H](C)[C@@]2(O)C[C@@H](O)[C@H](C)[C@@H](C(C)C)O2)OC1=O,human dendritic cells,item: phagosomal pH,concentration not given,reference: DMSO,fluorescein fluorescence increase,2 fold
Cc1c(Cc2ccc(F)cc2F)c(=O)n2c([nH]c3ccccc32)c1C#N,Vero,cell growth or viability,,,IC50,8 µg/mL
CC(O)(CS(=O)(=O)c1ccc(F)cc1)C(=O)Nc1ccc(C#N)c(C(F)(F)F)c1 (stereo not drawn),LNCaP,"PSA expression, antagonist","1 day, charcoal-stripped serum 3 days, added: 1 nM DHT",,Ki,0.19 µM
C[n+]1ccc(-c2ccccc2)cc1,MN9D,"cell growth or viability, MTT",16 h,,IC50,118 µM
Nc1cc(I)c(I)cc1N,MRC5,cell growth or viability,72 h,,IC50,150 µM
CCCCCc1cc(O)c2c(c1)OC(C)(C)c1ccc(C)cc1-2,SK-OV-3,"cell growth or viability, MTT",72 h,,IC50,30.6 µM
CC(O)(CS(=O)(=O)c1ccc(F)cc1)C(=O)Nc1ccc(C#N)c(C(F)(F)F)c1 (stereo not drawn),LAPC4,"cell growth or viability, ATP luminescence",,,IC50,1.3 µM

# Some of these lines once more:
Compound,cell line,test,conditions,how to read,endpoint,value
CCCCCc1cc(O)c2c(c1)OC(C)(C)c1ccc(C)cc1-2,SK-OV-3,"cell growth or viability, MTT",72 h,,IC50,30.6 µM
